Assay results gathered from unrelated publications.
Each numbered part is a random draw from the data of one study; scales do not carry over between parts.
UniProt P08631, sequence (whole entry, looked up): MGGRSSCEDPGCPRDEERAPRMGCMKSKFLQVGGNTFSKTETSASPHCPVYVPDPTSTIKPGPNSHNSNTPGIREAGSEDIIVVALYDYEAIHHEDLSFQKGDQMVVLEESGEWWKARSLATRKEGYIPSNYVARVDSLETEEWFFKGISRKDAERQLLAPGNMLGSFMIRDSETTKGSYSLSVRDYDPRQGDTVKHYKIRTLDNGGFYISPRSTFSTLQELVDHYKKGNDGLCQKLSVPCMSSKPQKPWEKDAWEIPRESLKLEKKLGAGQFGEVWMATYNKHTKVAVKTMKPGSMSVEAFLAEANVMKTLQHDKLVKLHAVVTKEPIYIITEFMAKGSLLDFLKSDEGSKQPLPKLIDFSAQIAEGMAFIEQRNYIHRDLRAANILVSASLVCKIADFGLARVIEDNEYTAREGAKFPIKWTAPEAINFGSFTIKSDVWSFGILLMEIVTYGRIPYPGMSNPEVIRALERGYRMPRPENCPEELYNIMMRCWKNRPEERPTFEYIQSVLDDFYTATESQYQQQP
UniProt O76039, sequence (whole entry, looked up): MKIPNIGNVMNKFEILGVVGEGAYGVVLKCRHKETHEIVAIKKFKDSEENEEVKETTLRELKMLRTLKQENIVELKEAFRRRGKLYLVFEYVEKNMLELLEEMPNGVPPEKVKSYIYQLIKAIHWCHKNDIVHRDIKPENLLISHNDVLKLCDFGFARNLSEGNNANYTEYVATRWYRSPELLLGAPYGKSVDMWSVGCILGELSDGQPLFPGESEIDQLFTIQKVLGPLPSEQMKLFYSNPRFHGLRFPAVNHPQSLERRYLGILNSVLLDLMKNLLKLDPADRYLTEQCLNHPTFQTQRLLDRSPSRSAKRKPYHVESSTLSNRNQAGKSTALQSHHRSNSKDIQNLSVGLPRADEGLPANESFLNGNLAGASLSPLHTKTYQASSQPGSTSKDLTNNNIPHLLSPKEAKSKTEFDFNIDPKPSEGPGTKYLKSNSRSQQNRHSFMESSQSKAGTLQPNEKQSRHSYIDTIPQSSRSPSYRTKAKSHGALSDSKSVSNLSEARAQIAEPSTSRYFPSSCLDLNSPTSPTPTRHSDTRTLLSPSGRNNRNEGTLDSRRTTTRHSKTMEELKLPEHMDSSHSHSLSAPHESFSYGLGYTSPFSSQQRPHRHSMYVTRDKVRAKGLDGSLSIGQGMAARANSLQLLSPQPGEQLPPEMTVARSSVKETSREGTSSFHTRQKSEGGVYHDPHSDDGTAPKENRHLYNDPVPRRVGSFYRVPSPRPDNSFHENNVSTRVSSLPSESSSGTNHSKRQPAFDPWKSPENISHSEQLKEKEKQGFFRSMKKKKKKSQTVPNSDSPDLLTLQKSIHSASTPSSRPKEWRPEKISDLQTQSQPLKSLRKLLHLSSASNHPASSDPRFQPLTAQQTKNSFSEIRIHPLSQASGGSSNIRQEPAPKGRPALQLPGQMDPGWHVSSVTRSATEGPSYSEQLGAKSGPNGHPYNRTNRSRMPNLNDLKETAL
UniProt P43403, sequence (whole entry, looked up): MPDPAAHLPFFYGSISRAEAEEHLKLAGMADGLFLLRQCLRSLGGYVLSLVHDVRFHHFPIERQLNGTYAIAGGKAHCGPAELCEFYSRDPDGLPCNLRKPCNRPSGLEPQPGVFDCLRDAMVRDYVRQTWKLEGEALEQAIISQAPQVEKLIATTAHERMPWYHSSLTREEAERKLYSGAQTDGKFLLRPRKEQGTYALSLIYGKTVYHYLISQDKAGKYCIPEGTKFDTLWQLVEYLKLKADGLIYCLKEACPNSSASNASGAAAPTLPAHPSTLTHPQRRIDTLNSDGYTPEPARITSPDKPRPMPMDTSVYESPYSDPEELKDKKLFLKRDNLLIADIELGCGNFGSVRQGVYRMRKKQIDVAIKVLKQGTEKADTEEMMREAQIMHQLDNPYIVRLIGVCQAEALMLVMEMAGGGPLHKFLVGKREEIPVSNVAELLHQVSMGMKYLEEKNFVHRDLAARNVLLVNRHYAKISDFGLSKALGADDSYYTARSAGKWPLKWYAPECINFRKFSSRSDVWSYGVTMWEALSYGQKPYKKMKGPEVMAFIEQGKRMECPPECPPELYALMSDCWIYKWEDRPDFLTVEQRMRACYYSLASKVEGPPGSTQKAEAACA
UniProt Q86UE8, sequence (whole entry, looked up): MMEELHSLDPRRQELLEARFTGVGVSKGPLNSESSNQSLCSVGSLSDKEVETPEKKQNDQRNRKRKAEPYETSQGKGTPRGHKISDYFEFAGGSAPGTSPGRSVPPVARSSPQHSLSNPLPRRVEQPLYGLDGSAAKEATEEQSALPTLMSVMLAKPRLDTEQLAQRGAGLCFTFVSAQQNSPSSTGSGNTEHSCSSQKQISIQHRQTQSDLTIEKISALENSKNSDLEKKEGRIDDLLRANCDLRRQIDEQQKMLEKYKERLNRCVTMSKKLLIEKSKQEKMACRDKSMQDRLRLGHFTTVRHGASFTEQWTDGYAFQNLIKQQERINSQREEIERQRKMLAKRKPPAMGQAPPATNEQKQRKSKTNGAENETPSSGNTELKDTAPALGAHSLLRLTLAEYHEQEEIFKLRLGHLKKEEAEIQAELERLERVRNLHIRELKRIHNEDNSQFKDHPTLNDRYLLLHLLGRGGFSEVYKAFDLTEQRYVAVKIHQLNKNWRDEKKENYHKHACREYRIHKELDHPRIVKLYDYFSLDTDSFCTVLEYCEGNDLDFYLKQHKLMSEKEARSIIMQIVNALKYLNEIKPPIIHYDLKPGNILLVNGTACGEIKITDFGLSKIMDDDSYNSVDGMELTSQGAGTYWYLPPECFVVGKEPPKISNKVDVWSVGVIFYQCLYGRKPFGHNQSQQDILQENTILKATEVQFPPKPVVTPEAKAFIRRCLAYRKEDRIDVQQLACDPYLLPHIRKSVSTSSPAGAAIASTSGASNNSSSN

Sample 1
Structure (SMILES): C[C@@H]1CN(c2ccc(-c3cc(C(=O)NCCOCCOCCOCCOCCNC(=O)/C=C/c4[nH]cc(C(=O)N[C@@H](CC(N)=O)c5ccc(F)c(Cl)c5)c4-c4ccc(Cl)cc4F)ccc3F)cc2NC(=O)c2c[nH]c(=O)cc2C(F)(F)F)C[C@H](C)N1C
Read-out: thermal unfolding
Technique: differential scanning fluorimetry
Concentration: 5.5 µM
Reading: higher = more unfolded
WDR5: WD repeat-containing protein 5 (WDR5, Homo sapiens, UniProt P61964)
DCAF1: DDB1- and CUL4-associated factor 1 (DCAF1, Homo sapiens, UniProt Q9Y4B6)
UniProt Q9Y4B6, sequence (whole entry, looked up): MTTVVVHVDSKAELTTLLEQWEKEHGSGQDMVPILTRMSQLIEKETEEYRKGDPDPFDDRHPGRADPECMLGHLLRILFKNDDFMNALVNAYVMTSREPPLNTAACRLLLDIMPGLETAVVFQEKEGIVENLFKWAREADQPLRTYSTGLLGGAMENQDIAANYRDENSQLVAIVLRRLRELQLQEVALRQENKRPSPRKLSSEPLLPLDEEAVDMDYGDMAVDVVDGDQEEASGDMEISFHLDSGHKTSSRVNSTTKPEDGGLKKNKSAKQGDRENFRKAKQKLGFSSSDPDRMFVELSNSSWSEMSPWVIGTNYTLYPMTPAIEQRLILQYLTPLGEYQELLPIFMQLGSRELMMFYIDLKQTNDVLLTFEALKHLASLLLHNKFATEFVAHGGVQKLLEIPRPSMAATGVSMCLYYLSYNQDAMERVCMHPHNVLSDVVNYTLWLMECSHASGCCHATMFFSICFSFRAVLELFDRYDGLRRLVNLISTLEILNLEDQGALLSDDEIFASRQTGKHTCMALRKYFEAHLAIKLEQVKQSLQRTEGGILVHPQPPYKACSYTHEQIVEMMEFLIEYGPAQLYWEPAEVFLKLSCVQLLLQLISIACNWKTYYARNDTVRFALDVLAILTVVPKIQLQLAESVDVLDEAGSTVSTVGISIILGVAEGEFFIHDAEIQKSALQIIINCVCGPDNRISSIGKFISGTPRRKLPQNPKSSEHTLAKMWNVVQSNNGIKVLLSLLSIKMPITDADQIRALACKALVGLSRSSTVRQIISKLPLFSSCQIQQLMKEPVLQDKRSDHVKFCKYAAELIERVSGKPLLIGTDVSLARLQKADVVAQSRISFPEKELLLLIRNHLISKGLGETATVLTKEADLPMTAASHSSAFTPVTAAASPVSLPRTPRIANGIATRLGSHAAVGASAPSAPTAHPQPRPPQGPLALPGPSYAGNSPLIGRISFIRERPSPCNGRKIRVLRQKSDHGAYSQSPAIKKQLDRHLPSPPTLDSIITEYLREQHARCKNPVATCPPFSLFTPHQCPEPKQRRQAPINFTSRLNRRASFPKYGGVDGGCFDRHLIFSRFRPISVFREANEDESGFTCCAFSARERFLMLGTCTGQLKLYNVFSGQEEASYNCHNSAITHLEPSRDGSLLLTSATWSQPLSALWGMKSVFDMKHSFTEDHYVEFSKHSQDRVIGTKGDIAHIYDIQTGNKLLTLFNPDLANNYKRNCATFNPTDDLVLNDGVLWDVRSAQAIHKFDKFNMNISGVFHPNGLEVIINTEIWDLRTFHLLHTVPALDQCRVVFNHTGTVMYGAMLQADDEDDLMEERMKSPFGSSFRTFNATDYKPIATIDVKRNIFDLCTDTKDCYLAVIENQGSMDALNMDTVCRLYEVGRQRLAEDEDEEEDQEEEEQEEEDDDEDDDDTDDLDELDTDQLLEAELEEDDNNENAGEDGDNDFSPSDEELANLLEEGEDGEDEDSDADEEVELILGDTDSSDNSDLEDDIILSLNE
target | setting | SYPRO Orange fluorescence
WDR5 | 76.81 °C | 30600 a.u.
DCAF1 | 33.4 °C | 9830 a.u.
DCAF1 | 91.81 °C | 33100 a.u.
DCAF1 | 39 °C | 11200 a.u.
WDR5 | 48 °C | 15900 a.u.
WDR5 | 61.41 °C | 15200 a.u.
DCAF1 | 49 °C | 14700 a.u.
DCAF1 | 47 °C | 13900 a.u.

Sample 2
Structure (SMILES): Cc1ccc(O)c(C)c1-c1cnc2[nH]c(-c3cnc(N)nc3)cc2c1C#N
Target: Membrane-associated tyrosine- and threonine-specific cdc2-inhibitory kinase (PKMYT1, Homo sapiens, UniProt Q99640)
UniProt Q99640, sequence (whole entry, looked up): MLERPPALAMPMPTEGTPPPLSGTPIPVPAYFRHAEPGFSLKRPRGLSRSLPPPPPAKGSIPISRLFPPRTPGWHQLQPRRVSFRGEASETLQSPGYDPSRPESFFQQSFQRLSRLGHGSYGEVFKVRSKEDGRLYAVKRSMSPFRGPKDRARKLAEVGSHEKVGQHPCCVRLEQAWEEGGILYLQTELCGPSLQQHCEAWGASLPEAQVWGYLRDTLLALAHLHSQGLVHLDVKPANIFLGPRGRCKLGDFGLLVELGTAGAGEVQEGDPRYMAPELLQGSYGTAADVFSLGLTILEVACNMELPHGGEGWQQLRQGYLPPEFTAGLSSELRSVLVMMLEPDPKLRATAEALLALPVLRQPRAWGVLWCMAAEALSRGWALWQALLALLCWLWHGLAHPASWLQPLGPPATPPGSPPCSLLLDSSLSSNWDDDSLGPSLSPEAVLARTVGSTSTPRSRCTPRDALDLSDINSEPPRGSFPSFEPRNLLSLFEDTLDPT
Action: degrader
Technique: automated immunoblot
Cell line: HCC1569
setting | degradation [%]
111.11 nM | -32.5
37.04 nM | -29.4
1.37 nM | -7.31
12.35 nM | -24.7
0.15 nM | -1.32
4.12 nM | -12.3
0.05 nM | -2.37
0.46 nM | 1.66

Sample 3
SMILES: O=C(Nc1ccccc1)Nc1cccc(Oc2ccc3nccn3n2)c1
Concentration: 1 µM
target | test | remaining binding [%]
IKBKE (Homo sapiens, UniProt Q14164) | binding | 100
MINK1 (Homo sapiens, UniProt Q8N4C8) | binding, competition with immobilised ligand | 87
RIOK1 (Homo sapiens, UniProt Q9BRS2) | binding | 52
CDKL5 (Homo sapiens, UniProt O76039) | binding | 98
FGR (Homo sapiens, UniProt P09769) | cell-free assay, competition with immobilised ligand | 82
ZAP70 (Homo sapiens, UniProt P43403) | binding | 100
TLK2 (Homo sapiens, UniProt Q86UE8) | binding | 100
MAPK10 (Homo sapiens, UniProt P53779) | binding | 100
STK32C (Homo sapiens, UniProt Q86UX6) | binding | 100
MELK (Homo sapiens, UniProt Q14680) | binding | 100
HCK (Homo sapiens, UniProt P08631) | cell-free binding | 76
MAP4K4 (Homo sapiens, UniProt O95819) | cell-free binding | 100
AKT2 (Homo sapiens, UniProt P31751) | binding | 100

Sample 4
Compound: CCN1/C(=C/C=C2\CCCC(/C=C/C3=[N+](CC)c4ccccc4C3(C)C)=C2NCCCCCCCCN2CCC(Nc3nc4ccccc4n3Cc3ccc(F)cc3)CC2)C(C)(C)c2ccccc21
Cell line: U-87 MG
Concentration: concentration not given
Reference: DMSO
test | log2 fold change
item: ADD3 mRNA | -1.05
item: S100A2 mRNA | -1.5
item: MMP1 mRNA | 4.45
item: GPR158 mRNA | 4.26
item: KIAA1549L mRNA | -1.41
item: SMIM34A mRNA | 4.83
item: LTBP2 mRNA | -1.65
item: CCNF mRNA | -2.57
item: KCNT2 mRNA | 1.18
item: ERC2 mRNA | 3.19
item: REXO5 mRNA | -1.43

Repeated from above (sample 3):
target | test | remaining binding [%]
TLK2 (Homo sapiens, UniProt Q86UE8) | binding | 100
MAPK10 (Homo sapiens, UniProt P53779) | binding | 100
STK32C (Homo sapiens, UniProt Q86UX6) | binding | 100
MELK (Homo sapiens, UniProt Q14680) | binding | 100
HCK (Homo sapiens, UniProt P08631) | cell-free binding | 76
